Experimental data from different studies.
Compare with care: the assays were run in different laboratories. Several values in a cell are separate wells, animals, samples, runs or records. ± marks the error that the study gave.

For `CC(C)(CO)[C@@H](O)C(=O)NCCC(=O)O`, “log2 fold change” read -0.132 (binding, MIDAS equilibrium dialysis LC-MS; A2AR-BRIL thermostabilized; concentration not given; baseline: no-protein control).
`CCn1cc(-c2cc(Cn3ccnc3)cc3c2CCN([C@H](c2cc(OC)ccn2)C2CC2)C3=O)c(C(F)(F)F)n1` gave an EC50 of 2250 nM (RERFGC1B; cell growth; 120 h).
The tissue uptake of `CC(C)C[C@H](NC(=O)C[C@H](O)[C@H](CC(C)C)NC(=O)[C@H](Cc1c[nH]cn1)NC(=O)CNC(=O)[C@@H](NC(=O)[C@H](C)NC(=O)[C@H](Cc1c[nH]c2ccccc12)NC(=O)[C@H](CCC(N)=O)NC(=O)[C@@H](Cc1ccccc1)NC(=O)COCCOCCNC(=O)CCC(C(=O)O)N1CCN(CC(=O)O)CCN(CC(=O)O)CCN(CC(=O)O)CC1)C(C)C)C(N)=O` (stereo partly drawn) [lutetium-177 labelled] is reported as 1.6 ± 0.6 %ID/g (BALB/c nu/nu mice, small intestine; 50 pmol, 1 h, together with: PA 300 µg).
`O=C(O)CNC(=O)Cc1ccccc1` has a sarcomere length of 1.71 µm (ventricular cardiomyocytes, C57BL/6 mouse; dose not given, 0.3 s).
Under “phospho/total Akt ratio”, `CSc1cc(Oc2ccnc3[nH]c(=O)cnc23)ccc1NC(=O)Nc1cc(C(C)(C)C)nn1-c1ccccc1` is recorded as 0.35 (mean of patient lines P1-P3; reverse phase protein array, measured: Akt pSer473; 1 µM, 4 h; baseline: DMSO).
For `CC[C@H](C)C(=O)N1CCC(NC(=O)Nc2ccc(OC(F)(F)F)c(F)c2)CC1`, the percent recovery was 82% (Caco-2; Caco-2 permeability; 10 µM, 60 min, pH 7.4 apical, 7.4 basolateral, replicate 2, together with: verapamil; basolateral to apical).
`COc1cnc2cccc(N3CCc4c(cc(Cn5ccnc5C)cc4-c4cn(C)nc4C(F)(F)F)C3=O)c2c1` has an EC50 of 115 nM (HT55; cell growth, inhibitor; 120 h).
`N#Cc1ccc2c(c1)[C@H]1CCCN(C(=O)c3ccc4[nH]cnc4c3)[C@H]1C2`: “fasting plasma insulin” 18.5 mU/L (T2DM patients with overweight or obesity, plasma; oral, 20 mg, day 15 (360 h), multiple dosing, mean).
Under “log2 fold change”, `Cn1cc(-c2ccc(-c3cncc(Cl)c3N3CCC4(CCNC4=O)CC3)cc2)cn1` is recorded as -1.34 (COLO 205; gene expression, microarray, measured: SLC9A1 mRNA; concentration not given, 6 h; baseline: untreated cells).
`CCS(=O)(=O)c1nc(C2CC2)cc(C(F)(F)F)n1`: “cells with nuclear reporter” 94.4% and 98.7% (transportin-1/2; FUS nuclear import, high content imaging; HeLa Kyoto reporter; 50 µM, 2 h).
The EC50 of `CCn1cc(-c2cc(Cn3ccoc3=N)cc3c2CCN([C@@H](C)c2cc(OC)ccn2)C3=O)c(C(F)(F)F)n1` is reported as 5.78 nM (ZR-75-30; cell growth, inhibitor; 120 h).
Under “log2 fold change”, `Nc1ncnc2c1ncn2[C@H]1C[C@H](O)[C@@H](COP(=O)(O)O)O1` is recorded as -0.285 (binding, MIDAS equilibrium dialysis LC-MS; A2AR-BRIL thermostabilized; concentration not given; baseline: no-protein control).
The tissue uptake of `CC(C)C[C@H](NC(=O)C[C@H](O)[C@H](CC(C)C)NC(=O)[C@H](Cc1c[nH]cn1)NC(=O)CNC(=O)[C@@H](NC(=O)[C@H](C)NC(=O)[C@H](Cc1c[nH]c2ccccc12)NC(=O)[C@H](CCC(N)=O)NC(=O)[C@@H](Cc1ccccc1)NC(=O)COCCOCCNC(=O)CN1CCN(CC(=O)O)CCN(CC(=O)O)CCN(CC(=O)O)CC1)C(C)C)C(N)=O` [lutetium-177 labelled] is reported as 0.0088 ± 0.0004 %ID/g (female BALB/c nu/nu mice, blood; intravenous, 50 pmol, 24 h).
Under “mean arterial pressure change”, `CNCCOC12CC3(C)CC(C)(CC(Cn4ncc(-c5ccc(N6CCc7cccc(C(=O)Nc8nc9ccccc9s8)c7C6)nc5C(=O)O)c4C)(C3)C1)C2` is recorded as -3% (beagle dog, male, anaesthetised; intravenous bolus, 0.03 mg/kg, 30 min; baseline: baseline).
For `NC(N)=NCC(=O)O`, “log2 fold change” read -0.0709 (binding, MIDAS equilibrium dialysis LC-MS; A2AR-BRIL thermostabilized; concentration not given; baseline: no-protein control).
For `O=C(Nc1nc2cccc(-c3ccc(CN4CCS(=O)(=O)CC4)cc3)n2n1)C1CC1`, “treatment-emergent adverse events” read 10% (measured: headache; human rheumatoid arthritis patients; oral, 300 mg once daily, 4 weeks, regardless of relatedness).
For `CCCCCCCC(=O)SCCNC(=O)CCNC(=O)[C@H](O)C(C)(C)COP(=O)(O)OP(=O)(O)OC[C@H]1O[C@@H](n2cnc3c(N)ncnc32)[C@H](O)[C@@H]1OP(=O)(O)O`, “log2 fold change” read 0.645 (binding, MIDAS equilibrium dialysis LC-MS; A2AR-BRIL thermostabilized; concentration not given; baseline: no-protein control).
`Cc1c(-c2ccc(N3CCc4cccc(C(=O)Nc5nc6ccccc6s5)c4C3)nc2C(=O)O)cnn1CC12CC3(C)CC(C)(C1)CC(OCCNCC[C@H](O)CO)(C3)C2` — result for “cardiac output change”: -16% (anaesthetised male beagle dogs; intravenous infusion, 0.3 mg/kg/min, 75 min; baseline: vehicle).
`CC(C)C[C@@H](O)C(=O)O`: “log2 fold change” -0.557 (binding, MIDAS equilibrium dialysis LC-MS; A2AR-BRIL thermostabilized; concentration not given; baseline: no-protein control).
For `CC(C)n1ncc2c(C(=O)NCC3(C)CNC3)cc(C3CC3)nc21`, the cell protection was 6.25% and 3.19% (coxsackievirus A16; RD; 0.15 µM).
`CC[S+]([O-])c1nc(-c2ccccc2)cc(C(F)(F)F)n1` (stereo not drawn) — result for “cells with nuclear reporter”: 95.9% and 92.7% (transportin-1/2; FUS nuclear import, high content imaging; HeLa Kyoto reporter; 0.0158 µM, 2 h).

Repeated from above:
`COc1cnc2cccc(N3CCc4c(cc(Cn5ccnc5C)cc4-c4cn(C)nc4C(F)(F)F)C3=O)c2c1` has an EC50 of 115 nM (HT55; cell growth, inhibitor; 120 h).
`N#Cc1ccc2c(c1)[C@H]1CCCN(C(=O)c3ccc4[nH]cnc4c3)[C@H]1C2`: “fasting plasma insulin” 18.5 mU/L (T2DM patients with overweight or obesity, plasma; oral, 20 mg, day 15 (360 h), multiple dosing, mean).
